# Results collected from several papers.
# Every numbered part comes from another study and shows a few of its results, in no order. Positions count from the first letter of the parent shown.

# Block 1
# Target: Sal-like protein 4, full length isoform A (SALL4, Homo sapiens, UniProt Q9UJQ4, residues 1-1053)
# Sequence of UniProt Q9UJQ4 (whole entry, looked up): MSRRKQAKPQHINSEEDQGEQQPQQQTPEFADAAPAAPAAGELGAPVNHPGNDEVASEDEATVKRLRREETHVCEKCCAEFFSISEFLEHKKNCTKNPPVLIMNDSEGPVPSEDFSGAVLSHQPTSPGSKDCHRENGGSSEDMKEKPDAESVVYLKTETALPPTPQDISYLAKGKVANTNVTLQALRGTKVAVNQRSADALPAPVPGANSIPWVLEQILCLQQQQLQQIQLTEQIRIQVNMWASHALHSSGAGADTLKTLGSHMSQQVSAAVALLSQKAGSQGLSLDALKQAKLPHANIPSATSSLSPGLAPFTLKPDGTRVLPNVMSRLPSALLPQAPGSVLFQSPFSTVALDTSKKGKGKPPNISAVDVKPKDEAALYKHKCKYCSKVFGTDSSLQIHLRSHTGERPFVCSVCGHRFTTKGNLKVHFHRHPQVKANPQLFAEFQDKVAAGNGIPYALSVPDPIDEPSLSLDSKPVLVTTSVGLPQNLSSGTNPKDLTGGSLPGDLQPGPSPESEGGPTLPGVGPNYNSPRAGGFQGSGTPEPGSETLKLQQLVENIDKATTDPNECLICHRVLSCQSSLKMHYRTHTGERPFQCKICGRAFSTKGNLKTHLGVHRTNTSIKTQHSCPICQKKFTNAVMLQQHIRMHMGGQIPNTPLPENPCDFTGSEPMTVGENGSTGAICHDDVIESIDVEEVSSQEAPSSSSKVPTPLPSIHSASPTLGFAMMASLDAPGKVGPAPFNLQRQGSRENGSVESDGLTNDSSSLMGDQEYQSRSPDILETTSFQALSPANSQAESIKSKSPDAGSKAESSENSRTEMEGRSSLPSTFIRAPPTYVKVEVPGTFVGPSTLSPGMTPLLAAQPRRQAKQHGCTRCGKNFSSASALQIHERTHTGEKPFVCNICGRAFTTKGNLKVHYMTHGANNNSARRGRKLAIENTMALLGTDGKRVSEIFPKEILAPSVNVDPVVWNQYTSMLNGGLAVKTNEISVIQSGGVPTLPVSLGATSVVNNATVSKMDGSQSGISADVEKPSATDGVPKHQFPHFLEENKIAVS
# Technique: universal PBM
# Molecule type: double-stranded DNA, one strand shown
# Sample: in vitro
# Concentration: 600 nM
# Notes: 8-mer, flanks averaged, mean of replicates
# Reading: higher = stronger binding
Oligonucleotide,E-score
ACATCCAA,0.121
ACGTAACA,0.119
CTCTCAAG,0.00094
AGATAAGG,0.00191
CATACTCG,-0.0211
ATGAACAC,0.213
ATCAATTC,0.204
ATCCAAAT,0.276
CCCAGAGC,-0.304
GTAGCCAA,-0.0406
AGAAATCC,-0.0974
AGGCTTAA,0.0852
AGATTCCC,-0.199
AGAAAACA,0.232
AATCTTTG,0.157
GCAACAGC,-0.135
CGCAGACC,-0.288
GTTATGTA,0.237
ACTCTGTC,-0.0192
GACAGCTA,0.0547
GGTGCCAA,-0.146
CCCCCACC,-0.339
CATGGGGG,-0.274
CATAAGGG,0.14
GGATGGAC,-0.144

# Block 2
# Target: ABI1, truncated, D143A, DHFR fusion (Arabidopsis thaliana)
# Technique: DHFR PCA, deep sequencing
# Sample: yeast
# Notes: methotrexate growth selection, single substitutions
# Together with: (+)-ABA 0.11 µM
# Relative to: wild-type fitted maximum
# Reading: higher = stronger binding
# Starting sequence: PYL1, truncated, DHFR fusion (Arabidopsis thaliana); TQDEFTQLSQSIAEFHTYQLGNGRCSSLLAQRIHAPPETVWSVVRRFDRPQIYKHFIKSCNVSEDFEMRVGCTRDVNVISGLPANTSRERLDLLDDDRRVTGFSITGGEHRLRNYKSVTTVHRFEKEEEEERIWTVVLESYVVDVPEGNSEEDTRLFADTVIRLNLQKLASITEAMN; partner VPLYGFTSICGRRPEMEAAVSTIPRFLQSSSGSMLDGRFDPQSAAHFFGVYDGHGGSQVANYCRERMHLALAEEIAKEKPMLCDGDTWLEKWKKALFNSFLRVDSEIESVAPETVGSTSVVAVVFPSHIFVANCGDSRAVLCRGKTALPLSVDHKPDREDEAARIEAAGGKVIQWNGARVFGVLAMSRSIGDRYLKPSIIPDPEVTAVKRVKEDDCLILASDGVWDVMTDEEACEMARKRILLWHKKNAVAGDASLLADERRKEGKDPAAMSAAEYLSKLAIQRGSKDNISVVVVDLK
Variant,relative binding score [%]
R45W,-3.35
I172H,-4.41
Q2R,29
K54Q,10.7
E129Q,27.4
F66Y,10.4
V76T,-1.65
I79C,37.6
S63V,15.4
T73Y,61.2
H34N,46.6

# Block 3
# Target: Phosphate system positive regulatory protein PHO4, full length, GST-tagged (PHO4, Saccharomyces cerevisiae, UniProt P07270, residues 1-312)
# Technique: competition protein-binding microarray
# Molecule type: double-stranded DNA, one strand shown
# Sample: in vitro
# Concentration: 2 µM
# Notes: whole 60-bp probe, lowest competitor level
# Together with: Cbf1 competitor, 0.05 µM
# Reading: higher = stronger binding
# Residues (chain): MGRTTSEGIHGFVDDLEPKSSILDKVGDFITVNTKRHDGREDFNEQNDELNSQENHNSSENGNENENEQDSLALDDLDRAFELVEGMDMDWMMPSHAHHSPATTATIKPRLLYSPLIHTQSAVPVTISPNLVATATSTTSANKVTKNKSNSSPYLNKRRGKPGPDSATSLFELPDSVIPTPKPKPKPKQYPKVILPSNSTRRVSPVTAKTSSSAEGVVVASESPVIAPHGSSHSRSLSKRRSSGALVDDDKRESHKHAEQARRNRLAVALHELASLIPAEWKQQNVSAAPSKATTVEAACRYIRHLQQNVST
Oligonucleotide,fluorescence intensity [a.u.]
GTCTTGTCTCATTTTCACGTGCTTTTCCCCACTTCAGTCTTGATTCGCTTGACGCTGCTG,15700
TGTGTTGTATTCGGCCACGTGGGACCTCGCACATTGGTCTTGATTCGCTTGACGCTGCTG,19900
TGCGCAACAACTTAACACGTGTTTTTATGTCTAGAAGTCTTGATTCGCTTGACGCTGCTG,18000
AAAGCGGTAATTTGAACTGTGGGTGCAGATATCTATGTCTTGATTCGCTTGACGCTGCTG,4240
CATACCCAACCTTGTAAAGTGGGTGAAGATATTTGTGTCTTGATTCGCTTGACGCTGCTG,4110
GATCTTGATCTTACCGTCGTGACGGGCAGCCTTGATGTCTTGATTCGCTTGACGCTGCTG,4810
ATAAGTAAACTCTCACACATGCTAACTTCTGTTGGGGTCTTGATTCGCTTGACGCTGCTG,9310
TAAATAACCCTGAGCCACATGTGTAAGATGCCGTAGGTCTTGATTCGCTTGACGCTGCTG,12700
CATACCCAACCTTGCTTAGTGGGTGAAGATATTTGTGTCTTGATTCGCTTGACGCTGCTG,3830
AATTTGAATGGTAAGCTCGTGACGGAATTGTGGCTGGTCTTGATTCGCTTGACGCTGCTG,8390
CGTCCTAGTGATTGTTACGTGGGTGCCATGAGGAAGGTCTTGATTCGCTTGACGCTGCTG,9360
AGGCACCATTCATTTGTCGTGGCCGCAATGTGTCCCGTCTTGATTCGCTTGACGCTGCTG,5580
AACAAGAGGTTTCGTCACAATTGCTAGGCGGTGCCAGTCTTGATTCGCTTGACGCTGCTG,2720
CTCAAGGGCGTACACCATGTGTTGGACATAAACCTCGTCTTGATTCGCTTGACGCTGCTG,9050
AATTTTGGAGCTTGACATGTGGCCTCAATTGCATAAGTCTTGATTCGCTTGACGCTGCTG,10000
CGACAAATAGTAGCTCGCGTGGCCGAATGGCAACGCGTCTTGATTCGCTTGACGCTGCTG,6950
CTTCTGTAAATTTGGCACGTGTTTTGACGCGCCCCGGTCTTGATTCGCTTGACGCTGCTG,17800
TTGTCTCACTATTAACGCGTGGCCGGGTAAGACCCAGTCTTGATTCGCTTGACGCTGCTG,9400
ACTACATGCCAGCAGCCCGTGCGGATGCCAAATTTGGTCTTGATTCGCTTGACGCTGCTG,10000
CGGGGTTAAGTTTGAACAGTGGGTGGCTTGCAGCAGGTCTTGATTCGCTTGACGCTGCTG,4780

# Block 4
# Target: Prothrombin, mature alpha-thrombin (F2, Homo sapiens, UniProt P00734)
# Technique: aptamer microarray, sandwich
# Molecule type: DNA with 2'F-ANA
# Sample: in vitro
# Concentration: 200 nM
# Notes: whole 15-mer aptamer, many near background
# Together with: Cy3 exosite-II aptamer, 400 nM
# Reading: higher = stronger binding
# Oligonucleotide: GGTTGGTGTGGTTGG
Modification,mean fluorescence intensity [a.u.]
2'F-ANA at 1 3 5 12 15,129
2'F-ANA at 1 2 4 9 10 12 15,60.4
2'F-ANA at 1 3 4 6 7 8 9 13 15,198
2'F-ANA at 2 4 6 7 11 13 15,165
2'F-ANA at 3 5 6 8 14,57.3
2'F-ANA at 5 8 9 11 13 14 15,50.3
2'F-ANA at 1 2 4 7 9 10 15,50.3
2'F-ANA at 1 2 4 5 7 10 11 12 13 15,45.1
2'F-ANA at 1 3 7 8 9 10 12 13 14 15,69.6
2'F-ANA at 2 5 7 8 11 13,57.3
2'F-ANA at 1 3 4 8 10 14,49
2'F-ANA at 1 6 7 9 10 11 13 15,74.2
2'F-ANA at 2 3 4 10 13 15,217
2'F-ANA at 1 2 4 6 12 13,190
2'F-ANA at 1 2 3 4 5 6 7 10 13,51.1
2'F-ANA at 1 2 4 8 9 10 13 14,51.4
2'F-ANA at 1 2 3 4 8 9 13 14,56.3
2'F-ANA at 6 7 9 10 11 12 13 14 15,120
2'F-ANA at 1 2 5 6 7 8 10,56
2'F-ANA at 2 3 5 12,247
2'F-ANA at 3 5 8 9 11 13,113
2'F-ANA at 1 2 6 7 8 9 10 11 12 15,61.7
2'F-ANA at 1 4 5 6 7 8 9 13 14,56.1
2'F-ANA at 1 2 3 5 7,78.4
2'F-ANA at 2 5 7 8 9 13,59.7

# Block 5
# Target: Histone acetyltransferase KAT6A, both winged helices, GST fusion (KAT6A, Homo sapiens, UniProt Q92794, residues 1-181)
# Technique: protein binding microarray
# Molecule type: double-stranded DNA, one strand shown
# Sample: in vitro
# Concentration: not given
# Notes: 8-mer, flanks averaged, mean of 2 arrays, mostly near background
# Relative to: not given
# Reading: higher = stronger binding
# Target sequence (chain): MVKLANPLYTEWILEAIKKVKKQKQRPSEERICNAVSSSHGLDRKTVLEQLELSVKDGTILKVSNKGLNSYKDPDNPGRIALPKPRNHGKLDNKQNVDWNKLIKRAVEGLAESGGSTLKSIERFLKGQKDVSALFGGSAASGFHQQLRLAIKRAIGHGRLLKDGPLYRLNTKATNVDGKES
Oligonucleotide,E-score
CGGACGAA,0.233
AGCACCAG,-0.128
AGCATGTG,-0.169
AGTTCAAT,-0.135
AGGGGGAC,-0.187
ATTGCGAC,0.201
AAGTTTGA,-0.0322
ATATTGGG,-0.0448
TTATTGAA,-0.231
GGCTGGGA,-0.09
CCGAGGCC,0.209
GAATTGCA,-0.22
GTTCATGA,-0.0716
GGTGAGTA,-0.175
TAAACGCA,0.0748
AACACGAG,-0.1
TCCTCTCA,-0.301
AGAAACCC,-0.0141
ACTTACAA,-0.0369
CATAGGCG,0.12
ATCGATAG,-0.0527
AAGTCTGT,-0.139
GAAGCCGC,0.27
AGGCGTAT,-0.0554
CCATCGGA,-0.00757

# Block 6
# Target: CCND2, cyclin fold, Cln2 fusion (human)
# Technique: yeast growth competition, sequencing
# Sample: yeast
# Notes: weak parent motif
# Relative to: not given
# Reading: higher = stronger binding
# Starting sequence: RBL1 docking peptide (human); GSAKRRLFGEDPP; partner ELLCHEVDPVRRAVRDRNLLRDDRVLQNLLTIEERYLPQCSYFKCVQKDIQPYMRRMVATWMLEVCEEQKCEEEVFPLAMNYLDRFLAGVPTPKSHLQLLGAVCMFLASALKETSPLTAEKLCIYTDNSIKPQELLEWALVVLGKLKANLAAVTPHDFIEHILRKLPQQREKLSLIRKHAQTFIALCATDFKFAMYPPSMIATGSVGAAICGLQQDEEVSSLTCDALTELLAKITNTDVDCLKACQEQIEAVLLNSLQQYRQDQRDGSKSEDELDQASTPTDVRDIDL
Variant,normalised enrichment score
P12D,-0.0873
L7F,0.00706
P12H,0.199
L7T,-0.203
K4S,0.0504
R5A,-0.00475
G9S,0.641
P12G,0.176
S2G,0.169
A3Y,0.0569
P12K,0.625
A3D,-0.052
R5D,0.248
L7E,-0.0931

# Some of these lines once more (block 4):
Modification,mean fluorescence intensity [a.u.]
2'F-ANA at 5 8 9 11 13 14 15,50.3
2'F-ANA at 1 2 4 7 9 10 15,50.3
2'F-ANA at 1 2 4 5 7 10 11 12 13 15,45.1
2'F-ANA at 1 3 7 8 9 10 12 13 14 15,69.6
2'F-ANA at 2 5 7 8 11 13,57.3
2'F-ANA at 1 3 4 8 10 14,49
2'F-ANA at 1 6 7 9 10 11 13 15,74.2
2'F-ANA at 2 3 4 10 13 15,217
2'F-ANA at 1 2 4 6 12 13,190
2'F-ANA at 1 2 3 4 5 6 7 10 13,51.1
2'F-ANA at 1 2 4 8 9 10 13 14,51.4
2'F-ANA at 1 2 3 4 8 9 13 14,56.3
2'F-ANA at 6 7 9 10 11 12 13 14 15,120
2'F-ANA at 1 2 5 6 7 8 10,56
2'F-ANA at 2 3 5 12,247
2'F-ANA at 3 5 8 9 11 13,113
2'F-ANA at 1 2 6 7 8 9 10 11 12 15,61.7
2'F-ANA at 1 4 5 6 7 8 9 13 14,56.1
